{"data": "Results collected from several papers", "UCHL1": "Ubiquitin carboxyl-terminal hydrolase isozyme L1 (UCHL1, Homo sapiens, UniProt P09936)", "note": "Protocols differ between the studies behind these lines. Values joined by “and” are separate records of one study, mostly repeats; a detail may differ.", "chain of UniProt P09936 (whole entry, looked up)": "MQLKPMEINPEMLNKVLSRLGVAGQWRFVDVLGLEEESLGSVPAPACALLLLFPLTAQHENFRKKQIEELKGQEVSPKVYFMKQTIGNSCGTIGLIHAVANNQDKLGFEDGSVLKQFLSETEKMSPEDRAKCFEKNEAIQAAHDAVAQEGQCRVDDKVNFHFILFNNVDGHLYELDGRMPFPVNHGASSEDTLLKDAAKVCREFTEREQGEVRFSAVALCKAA"}
{"SMILES": "CCCN1CCN(c2ccc3nc(-c4ccc5nc(-c6cc(OC)ccc6OC)[nH]c5c4)[nH]c3c2)CC1", "tested on": "SNB-75", "assay": "SRB", "conditions": "10 µM, 48 h", "quantity": "growth percent", "result": "90.9%"}
{"SMILES": "NNc1nc(-c2ccc(Cl)cc2)c2c(NC(=O)c3ccccc3)nnc-2[nH]1", "tested on": "SNB-75", "assay": "SRB", "conditions": "10 µM, NCI60 single-dose screen", "scale": "relative to: untreated", "quantity": "cell growth", "result": "92.2%"}
{"SMILES": "C#C[C@@]1(O)[C@@H](CO)O[C@@H](n2cc(F)c3c(N)ncnc32)[C@@H]1O", "tested on": "SNB-75", "assay": "SRB", "conditions": "NCI-60 screen", "quantity": "TGI", "result": "2320 nM"}
{"SMILES": "Cn1cncc1C1=CN(c2ncnc3[nH]cnc23)CCS1", "tested on": "SNB-75", "conditions": "CNS cancer", "quantity": "GI50", "result": "4900 nM"}
{"SMILES": "O=C(Nc1nnc2n3c(Cc4ccccc4)n[nH]c3nc(-c3ccc(Cl)cc3)c1-2)c1ccccc1", "tested on": "SNB-75", "assay": "SRB", "conditions": "10 µM, NCI60 single-dose screen", "scale": "relative to: untreated", "quantity": "cell growth", "result": "82.9%"}
{"SMILES": "O=C1NCCc2[nH]c(-c3ccncc3)cc21", "tested on": "SNB-75", "assay": "MTS", "conditions": "NCI60 panel", "quantity": "IC50", "result": "6140 nM"}
{"SMILES": "O=C(Nc1nnc2n3c(nc(-c4ccc(Cl)cc4)c1-2)SCC3=O)c1ccccc1", "tested on": "SNB-75", "assay": "SRB", "conditions": "10 µM, NCI60 single-dose screen", "scale": "relative to: untreated", "quantity": "cell growth", "result": "63.8%"}
{"SMILES": "C#C[C@@]1(O)[C@@H](CO)O[C@@H](n2cc(I)c3c(N)ncnc32)[C@@H]1O", "tested on": "SNB-75", "assay": "SRB", "conditions": "NCI-60 screen", "quantity": "TGI", "result": "1810 nM and 2180 nM"}
{"SMILES": "O=C(Nc1nnc2n3c(=S)[nH][nH]c3nc(-c3ccc(Cl)cc3)c1-2)c1ccccc1", "tested on": "SNB-75", "assay": "SRB", "conditions": "10 µM, NCI60 single-dose screen", "scale": "relative to: untreated", "quantity": "cell growth", "result": "89%"}
{"SMILES": "CCCCN1CCN(c2ccc3[nH]c(-c4ccc5[nH]c(-c6ccc(OCC)c(OCC)c6)nc5c4)nc3c2)CC1", "tested on": "SNB-75", "assay": "SRB", "conditions": "10 µM, 48 h", "quantity": "growth percent", "result": "24.1%"}
{"SMILES": "Cc1cc(C)n(-c2nc(-c3ccc(Cl)cc3)c3c(NC(=O)c4ccccc4)nnc-3[nH]2)n1", "tested on": "SNB-75", "assay": "SRB", "conditions": "10 µM, NCI60 single-dose screen", "scale": "relative to: untreated", "quantity": "cell growth", "result": "48.4%"}
{"SMILES": "CCCN1CCN(c2ccc3[nH]c(-c4ccc5[nH]c(-c6ccc(C(F)(F)F)cc6)nc5c4)nc3c2)CC1", "tested on": "SNB-75", "assay": "SRB", "conditions": "10 µM, 48 h", "quantity": "growth percent", "result": "32.5%"}
{"SMILES": "O=C(CCl)Nc1nnc(-c2ccccc2Cl)s1", "tested on": "UCHL1", "assay": "covalent, intact protein LC-MS", "conditions": "12.5 µM", "quantity": "labelling", "result": "21.1%"}
{"SMILES": "COc1ccc(OC)c(-c2nc3ccc(-c4nc5ccc(N6CCN(C)CC6)cc5[nH]4)cc3[nH]2)c1", "tested on": "SNB-75", "assay": "SRB", "conditions": "10 µM, 48 h", "quantity": "growth percent", "result": "74.1%"}
{"SMILES": "CC#CC(=O)N(CCOC)Cc1cccs1", "tested on": "UCHL1", "assay": "covalent, intact protein LC-MS", "conditions": "12.5 µM", "quantity": "labelling", "result": "9.47%"}
{"SMILES": "CCOc1ccc(-c2nc3cc(-c4nc5cc(N6CCN(C)CC6)ccc5[nH]4)ccc3[nH]2)cc1OCC", "tested on": "SNB-75", "assay": "SRB", "conditions": "10 µM, 48 h", "quantity": "growth percent", "result": "6.64%"}
{"SMILES": "S=C([S][Au-][P+](CCCCCC[P+]([Au-][S]C(=S)n1cccn1)(c1ccccc1)c1ccccc1)(c1ccccc1)c1ccccc1)n1cccn1", "tested on": "SNB-75", "assay": "cell growth, NCI-60 screen", "conditions": "CNS cancer", "quantity": "log10 TGI", "result": "> -4"}
{"note": "For quick reference, copied from above:"}
{"SMILES": "C#C[C@@]1(O)[C@@H](CO)O[C@@H](n2cc(I)c3c(N)ncnc32)[C@@H]1O", "tested on": "SNB-75", "assay": "SRB", "conditions": "NCI-60 screen", "quantity": "TGI", "result": "1810 nM and 2180 nM"}
{"SMILES": "O=C(Nc1nnc2n3c(=S)[nH][nH]c3nc(-c3ccc(Cl)cc3)c1-2)c1ccccc1", "tested on": "SNB-75", "assay": "SRB", "conditions": "10 µM, NCI60 single-dose screen", "scale": "relative to: untreated", "quantity": "cell growth", "result": "89%"}
